Measured values from different studies.
Protocols differ between the studies behind these lines. Values joined by “and” are separate records of one study, mostly repeats; a detail may differ. ± marks the error that the study gave.
Genome polyprotein NS3 helicase domain: Genome polyprotein, NS3 helicase domain (Hepatitis C virus genotype 1b, UniProt Q9WMX2)
DRD3: D(3) dopamine receptor (DRD3, Homo sapiens, UniProt P35462)
Sequence of UniProt P35462 (whole entry, looked up): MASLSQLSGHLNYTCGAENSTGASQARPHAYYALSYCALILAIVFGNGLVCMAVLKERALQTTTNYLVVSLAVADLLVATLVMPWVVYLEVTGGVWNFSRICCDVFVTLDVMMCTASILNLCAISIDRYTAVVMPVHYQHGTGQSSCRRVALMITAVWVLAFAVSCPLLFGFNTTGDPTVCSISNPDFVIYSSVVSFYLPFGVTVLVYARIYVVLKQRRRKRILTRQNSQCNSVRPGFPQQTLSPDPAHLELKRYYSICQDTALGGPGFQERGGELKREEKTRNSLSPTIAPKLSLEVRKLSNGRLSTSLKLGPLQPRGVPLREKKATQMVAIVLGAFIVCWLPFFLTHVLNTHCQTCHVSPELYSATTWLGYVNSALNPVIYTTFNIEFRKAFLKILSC
Glutamate receptor 2: Glutamate receptor 2 (Homo sapiens, UniProt P42262)
Sequence of UniProt Q8IWT6 (whole entry, unmodified, looked up): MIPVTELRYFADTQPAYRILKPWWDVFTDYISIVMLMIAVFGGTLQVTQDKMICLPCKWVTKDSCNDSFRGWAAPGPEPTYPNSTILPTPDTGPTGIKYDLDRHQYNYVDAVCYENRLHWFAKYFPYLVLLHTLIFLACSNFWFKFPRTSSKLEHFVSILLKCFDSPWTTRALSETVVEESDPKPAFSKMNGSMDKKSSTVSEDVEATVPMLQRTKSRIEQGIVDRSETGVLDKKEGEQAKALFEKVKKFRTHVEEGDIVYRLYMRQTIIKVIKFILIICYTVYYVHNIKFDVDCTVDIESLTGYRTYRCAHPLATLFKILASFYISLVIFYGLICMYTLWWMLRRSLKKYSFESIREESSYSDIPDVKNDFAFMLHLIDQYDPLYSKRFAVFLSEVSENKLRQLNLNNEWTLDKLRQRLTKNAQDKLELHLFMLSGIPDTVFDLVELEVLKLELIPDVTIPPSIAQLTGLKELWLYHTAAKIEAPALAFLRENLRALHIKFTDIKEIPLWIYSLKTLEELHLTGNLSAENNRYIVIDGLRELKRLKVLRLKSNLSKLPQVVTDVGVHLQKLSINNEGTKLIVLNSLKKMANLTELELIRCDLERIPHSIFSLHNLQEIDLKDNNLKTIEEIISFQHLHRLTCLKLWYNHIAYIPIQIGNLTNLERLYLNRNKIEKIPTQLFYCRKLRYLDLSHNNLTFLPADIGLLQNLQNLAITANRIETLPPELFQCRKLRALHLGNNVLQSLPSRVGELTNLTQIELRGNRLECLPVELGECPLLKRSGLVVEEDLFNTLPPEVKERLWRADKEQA
Sequence of UniProt P55926 (whole entry, looked up): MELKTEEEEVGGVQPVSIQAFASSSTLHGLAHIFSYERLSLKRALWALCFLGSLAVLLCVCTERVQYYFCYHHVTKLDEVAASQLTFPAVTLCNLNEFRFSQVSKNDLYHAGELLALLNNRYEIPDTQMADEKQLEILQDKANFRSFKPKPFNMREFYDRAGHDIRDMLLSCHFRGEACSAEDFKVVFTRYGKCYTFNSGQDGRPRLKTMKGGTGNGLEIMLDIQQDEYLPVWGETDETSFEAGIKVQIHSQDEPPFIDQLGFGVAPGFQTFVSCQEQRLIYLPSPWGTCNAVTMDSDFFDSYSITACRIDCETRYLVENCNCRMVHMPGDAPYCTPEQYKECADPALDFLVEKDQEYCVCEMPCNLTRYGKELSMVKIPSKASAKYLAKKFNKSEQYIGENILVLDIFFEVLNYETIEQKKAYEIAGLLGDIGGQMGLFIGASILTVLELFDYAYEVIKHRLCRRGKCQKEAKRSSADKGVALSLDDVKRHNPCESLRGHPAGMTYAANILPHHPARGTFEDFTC

CN(C)C1CCN(CC#Cc2nn(C3CCCC3)c3nc(NCc4ccccc4)ncc23)C1 (stereo not drawn)
inhibition (Serine/threonine-protein kinase TAO2 (TAOK2, Homo sapiens, UniProt Q9UL54); enzyme activity, inhibitor, Z'-LYTE; 100 nM): -3%

Cl.Clc1ccc(Cn2c(CN3CCCC3)nc3ccccc32)cc1
inhibition (Genome polyprotein NS3 helicase domain; DNA binding, inhibitor; hepatitis C virus; 100 µM, added: Cy5-dT15 DNA): 0%

Cc1ncccc1OC[C@@H]1CN(CCN2CCc3ccccc32)CCO1
inhibition (DRD3; radioligand binding; concentration not given, added: [3H]N-methylspiperone): 11.7%

CCN(CC)CCCC(C)Nc1c2ccc(Cl)cc2nc2ccc(OC)cc12 (stereo not drawn)
inhibition (Genome polyprotein NS3 helicase domain; DNA binding, inhibitor; hepatitis C virus; 100 µM, added: Cy5-dT15 DNA): 1%

CCc1oc2ccccc2c1C(=O)c1cc(Br)c(O)c(Br)c1
inhibition (Solute carrier family 22 member 12 (SLC22A12, Homo sapiens, UniProt Q96S37, F365A); urate uptake; HEK293T; 0.5 µM, 10 min, 37 °C, added: 200 µM [14C]urate): 38.2% and 60.8% and 34.8% and 66.9% and 53.8% and 65%

CC12CC3CC(C)(C1)CC(N)(C3)C2
inhibition (Glutamate receptor 2; ion current, negative allosteric modulator, SyncroPatch patch clamp; HEK293; 10 µM): 16%

CCCCCCCCCCCC1NCCc2cc(O)c(O)cc21 (stereo not drawn)
inhibition (tyrosinase; enzyme activity, inhibitor; 100 µM, added: levodopa): 9.18 ± 3.94%

COc1ccccc1-n1nnnc1SCC(=O)Nc1ccccc1SC
Kd (Cyclin-dependent kinase 2, with cyclin A (CDK2, Homo sapiens, UniProt P24941)): > 100 µM

Cn1cc(-c2ccc(-c3cncc(Cl)c3N3CCC4(CCNC4=O)CC3)cc2)cn1
fold change in expression (COLO 205; microarray, measured: CTGF; concentration not given, 6 h; baseline: untreated cells): 1.5

C[N+]1(CCCCC[N+]2(C)CCCC2)CCCC1.O=C([O-])C(O)C(O)C(=O)O.O=C([O-])C(O)C(O)C(=O)O
inhibition (Genome polyprotein NS3 helicase domain; DNA binding, inhibitor; hepatitis C virus; 100 µM, added: Cy5-dT15 DNA): 4%

CC[C@@H]1[C@H](F)C(=O)N[C@@H]1COc1nccc2cc(C(N)=O)c(OC)cc12
inhibition (Dual specificity mitogen-activated protein kinase kinase 4 (MAP2K4, Homo sapiens, UniProt P45985); ATP-site probe binding, ActivX profiling; THP-1 cell lysate; 0.04 mM, Lys2 site): 8%

O=S(=O)(NCc1ccccn1)c1cc(Cl)c(Cl)cc1Cl
Kd (Cyclin-dependent kinase 2 (CDK2, Homo sapiens, UniProt P24941); binding): > 100 µM

COc1cccc(C(=O)NCCN2CCN(c3ccc(Cl)cc3)CC2)c1
inhibition (Genome polyprotein NS3 helicase domain; DNA binding, inhibitor; hepatitis C virus; 100 µM, added: Cy5-dT15 DNA): 0%

Cc1ccc(C(=O)Nc2ccc3ccccc3c2)o1
inhibition (Acid-sensing ion channel 1 (Asic1, Rattus norvegicus, UniProt P55926); ion current, inhibitor, whole-cell patch clamp; 10 µM): 2.38% and 0.7% and 9.1% and 3.48% and 10%

CC(C)NCC(O)COc1cccc2ccccc12 (stereo not drawn)
inhibition (Glutamate receptor 2; ion current, negative allosteric modulator, SyncroPatch patch clamp; HEK293; 30 µM): -5%

CC(C)N(CCC(=O)c1ccc2ccccc2c1)Cc1ccccc1
inhibition (Coagulation factor XIII A chain (F13A1, Homo sapiens, UniProt P00488); crosslinking activity; 15 µM, without DTT): inhibited

O=C(CN1CCO[C@@H](COc2cccnc2)C1)N1CCc2ccccc21
inhibition (DRD3; radioligand binding; concentration not given, added: [3H]N-methylspiperone): 27.6%

CC[C@]1(O)C[C@H]2CN(CCc3c([nH]c4ccccc34)[C@@](C(=O)OC)(c3cc4c(cc3OC)N(C=O)[C@H]3[C@@](O)(C(=O)OC)[C@H](OC(C)=O)[C@]5(CC)C=CCN6CC[C@]43[C@@H]65)C2)C1
inhibition (Genome polyprotein NS3 helicase domain; DNA binding, inhibitor; hepatitis C virus; 100 µM, added: Cy5-dT15 DNA): 2%

CC/C(=N\NC(=O)NCc1cccc(O)c1)c1ccc(O)c(C)c1O
inhibition (Protein kinase C beta type, isoform beta-I (PRKCB, Homo sapiens, UniProt P05771); kinase activity; 0.1 µM): 7.9%

Cc1nc(N=Nc2ccc(C(=O)O)cc2)c(COP(=O)(O)O)c(C=O)c1O
inhibition (Genome polyprotein NS3 helicase domain; DNA binding, inhibitor; hepatitis C virus; 100 µM, added: Cy5-dT15 DNA): 43%

O=C(Nc1cccc2c(=O)cc(-c3nnn[nH]3)oc12)c1ccc(OCCCCc2ccccc2)cc1
inhibition (LRRC8A/LRRC8C (Homo sapiens, UniProt Q8IWT6+Q8TDW0, L134K/L136K); ion current, whole-cell patch clamp; LRRC8-/- HCT cells; 0.1 µM, L134K/L136K mutant, +100 mV): 11.1% and 16% and -4.27% and 6.74% and 2.47% and 6.73%
